Published values from different studies.
A part holds a random share of what one study measured. Several values in a cell are separate wells, animals, samples, runs or records.
Sequence of UniProt P10721 (whole entry, unmodified, looked up): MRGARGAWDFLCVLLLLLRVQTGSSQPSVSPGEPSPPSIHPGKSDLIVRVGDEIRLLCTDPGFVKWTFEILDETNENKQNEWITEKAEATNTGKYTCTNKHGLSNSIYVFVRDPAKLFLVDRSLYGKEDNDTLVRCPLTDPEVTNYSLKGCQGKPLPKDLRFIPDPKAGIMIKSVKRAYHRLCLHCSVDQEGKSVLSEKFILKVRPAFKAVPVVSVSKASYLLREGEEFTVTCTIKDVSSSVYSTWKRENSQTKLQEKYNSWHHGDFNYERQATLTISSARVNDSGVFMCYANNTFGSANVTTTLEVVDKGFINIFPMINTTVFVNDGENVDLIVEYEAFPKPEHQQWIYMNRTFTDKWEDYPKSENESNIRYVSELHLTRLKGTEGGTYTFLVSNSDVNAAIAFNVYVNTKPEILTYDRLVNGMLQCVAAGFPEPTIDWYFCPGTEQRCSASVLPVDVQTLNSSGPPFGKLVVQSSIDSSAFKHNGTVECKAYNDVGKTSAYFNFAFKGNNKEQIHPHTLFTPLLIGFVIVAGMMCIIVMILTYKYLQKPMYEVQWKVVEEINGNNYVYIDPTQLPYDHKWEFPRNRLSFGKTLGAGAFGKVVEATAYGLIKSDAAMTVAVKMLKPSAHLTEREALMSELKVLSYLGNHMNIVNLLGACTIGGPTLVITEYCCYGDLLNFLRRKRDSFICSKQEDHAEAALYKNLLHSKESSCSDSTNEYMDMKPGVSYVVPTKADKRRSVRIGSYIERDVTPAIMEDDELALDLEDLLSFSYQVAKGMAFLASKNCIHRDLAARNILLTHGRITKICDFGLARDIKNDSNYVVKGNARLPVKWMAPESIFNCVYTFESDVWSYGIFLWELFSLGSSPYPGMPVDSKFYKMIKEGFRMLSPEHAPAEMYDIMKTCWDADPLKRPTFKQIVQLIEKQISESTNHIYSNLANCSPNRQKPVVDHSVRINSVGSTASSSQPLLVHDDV
Sequence of UniProt Q8N5S9 (whole entry, looked up): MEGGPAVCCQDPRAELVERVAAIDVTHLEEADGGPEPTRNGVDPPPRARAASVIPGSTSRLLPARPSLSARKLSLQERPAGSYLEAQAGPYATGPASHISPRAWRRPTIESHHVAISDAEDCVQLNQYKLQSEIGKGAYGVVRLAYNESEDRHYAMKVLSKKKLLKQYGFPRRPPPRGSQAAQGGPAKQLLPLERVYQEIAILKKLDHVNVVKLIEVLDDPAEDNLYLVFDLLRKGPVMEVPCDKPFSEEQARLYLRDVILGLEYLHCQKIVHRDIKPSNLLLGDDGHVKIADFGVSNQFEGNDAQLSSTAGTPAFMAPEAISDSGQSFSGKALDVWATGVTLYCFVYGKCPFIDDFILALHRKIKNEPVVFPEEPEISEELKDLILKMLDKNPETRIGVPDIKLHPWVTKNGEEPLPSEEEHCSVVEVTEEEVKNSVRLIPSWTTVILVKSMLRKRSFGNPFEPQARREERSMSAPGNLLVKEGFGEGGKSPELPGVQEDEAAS
Sequence of UniProt P54762 (whole entry, looked up): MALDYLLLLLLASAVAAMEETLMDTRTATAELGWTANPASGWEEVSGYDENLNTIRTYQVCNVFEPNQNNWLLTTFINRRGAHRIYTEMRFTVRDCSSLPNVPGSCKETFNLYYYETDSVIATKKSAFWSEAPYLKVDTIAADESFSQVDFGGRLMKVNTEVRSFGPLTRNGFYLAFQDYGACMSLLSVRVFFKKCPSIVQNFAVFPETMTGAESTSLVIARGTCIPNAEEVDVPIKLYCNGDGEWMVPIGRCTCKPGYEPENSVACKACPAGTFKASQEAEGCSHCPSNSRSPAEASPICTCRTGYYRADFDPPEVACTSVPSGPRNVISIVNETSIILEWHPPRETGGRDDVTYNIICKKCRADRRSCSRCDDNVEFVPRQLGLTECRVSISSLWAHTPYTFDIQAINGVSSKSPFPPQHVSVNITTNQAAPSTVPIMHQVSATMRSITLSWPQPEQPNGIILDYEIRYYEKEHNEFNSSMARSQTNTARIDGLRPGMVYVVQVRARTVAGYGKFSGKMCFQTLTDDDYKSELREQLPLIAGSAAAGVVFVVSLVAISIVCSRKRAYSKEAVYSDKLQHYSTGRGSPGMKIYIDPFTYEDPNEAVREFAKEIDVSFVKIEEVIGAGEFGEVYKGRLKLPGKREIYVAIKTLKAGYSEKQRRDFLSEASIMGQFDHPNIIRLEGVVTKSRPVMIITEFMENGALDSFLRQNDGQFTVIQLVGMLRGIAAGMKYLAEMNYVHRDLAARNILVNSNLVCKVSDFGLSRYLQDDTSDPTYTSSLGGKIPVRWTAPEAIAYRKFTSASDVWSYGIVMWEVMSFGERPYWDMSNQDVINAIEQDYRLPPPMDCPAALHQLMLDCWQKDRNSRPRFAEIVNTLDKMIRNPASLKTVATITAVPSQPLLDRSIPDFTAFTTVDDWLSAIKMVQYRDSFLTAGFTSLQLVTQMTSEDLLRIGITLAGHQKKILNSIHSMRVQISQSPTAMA
Sequence of UniProt Q96RR4 (whole entry, looked up): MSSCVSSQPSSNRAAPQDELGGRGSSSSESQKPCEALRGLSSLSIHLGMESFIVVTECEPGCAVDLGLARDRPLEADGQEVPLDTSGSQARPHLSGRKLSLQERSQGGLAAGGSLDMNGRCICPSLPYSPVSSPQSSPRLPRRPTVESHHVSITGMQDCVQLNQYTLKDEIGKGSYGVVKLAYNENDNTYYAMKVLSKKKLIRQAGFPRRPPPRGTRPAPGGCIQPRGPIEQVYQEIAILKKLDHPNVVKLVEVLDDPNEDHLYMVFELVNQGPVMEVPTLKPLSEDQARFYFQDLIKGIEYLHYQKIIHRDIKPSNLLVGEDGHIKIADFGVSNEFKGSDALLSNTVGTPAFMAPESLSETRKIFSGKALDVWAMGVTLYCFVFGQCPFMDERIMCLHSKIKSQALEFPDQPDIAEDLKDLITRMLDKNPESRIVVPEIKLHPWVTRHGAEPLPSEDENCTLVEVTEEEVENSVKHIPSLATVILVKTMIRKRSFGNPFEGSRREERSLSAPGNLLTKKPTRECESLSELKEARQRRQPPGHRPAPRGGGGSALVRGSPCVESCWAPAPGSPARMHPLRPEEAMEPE
Sequence of UniProt O60331 (whole entry, looked up): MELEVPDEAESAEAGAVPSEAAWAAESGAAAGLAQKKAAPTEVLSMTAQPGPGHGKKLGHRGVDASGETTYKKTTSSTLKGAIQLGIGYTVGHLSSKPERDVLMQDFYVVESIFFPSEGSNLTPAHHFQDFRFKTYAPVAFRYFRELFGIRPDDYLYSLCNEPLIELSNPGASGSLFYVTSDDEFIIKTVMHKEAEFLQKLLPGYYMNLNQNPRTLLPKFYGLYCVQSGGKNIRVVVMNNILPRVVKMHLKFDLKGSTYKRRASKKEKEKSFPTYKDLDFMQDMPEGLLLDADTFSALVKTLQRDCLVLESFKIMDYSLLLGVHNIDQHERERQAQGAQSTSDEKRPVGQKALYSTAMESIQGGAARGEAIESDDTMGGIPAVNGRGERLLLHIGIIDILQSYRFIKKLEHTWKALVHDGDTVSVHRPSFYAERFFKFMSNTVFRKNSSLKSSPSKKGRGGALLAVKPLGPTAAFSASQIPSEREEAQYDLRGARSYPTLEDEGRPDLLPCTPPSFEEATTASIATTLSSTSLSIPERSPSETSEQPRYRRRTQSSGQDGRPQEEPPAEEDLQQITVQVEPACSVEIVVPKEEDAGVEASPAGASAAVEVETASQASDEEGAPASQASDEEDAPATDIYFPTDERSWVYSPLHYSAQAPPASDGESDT

Study 1
Compound: CC(C)n1cnc(-c2ccc(F)cc2)c1-c1ncc(C(=O)Nc2ccc(N3CCN(C)CC3)cc2)[nH]1
Method: phase 2a trial
Species: idiopathic pulmonary fibrosis patients
dose | notes | patients with cardiac failure [%]
30 mg once daily | adverse event grade 1 | 0
30 mg once daily | adverse event grade 2 | 0
dose not given | adverse event grade 4, all dose arms pooled | 0
30 mg once daily | adverse event grade 4 | 0
60 mg once daily | adverse event grade 2 | 0
30 mg once daily | adverse event grade 3 | 0

Study 2
Species: human
Matrix: microsomes or S9
Concentration: 2 µM
Time: 0.5 h
Compound | remaining compound [%]
CC(=O)OC/C=C/CCCC/C=C/COC(C)=O | > 99.9
Cn1c2ccccc2n2c(=O)n(Cc3cscn3)nc12 | 86.3
Nc1nc(N2CCOCC2)[nH]c(=O)c1Br | 76.3
Oc1ccc(-c2oncc2-c2ccccc2)c(O)c1 | 65
Cc1ccc(CCCNC(=O)c2cc(C(C)(C)C)c(O)c(C(C)(C)C)c2)cc1C | 75
Clc1ccccc1C1(c2ccnc(Cn3cncn3)n2)CCNCC1 | 92

Study 3
Compound: Cc1c(C(=O)O)cc(-c2ccc(C3CCNCC3)cc2)c2ccc(-c3ccc(C(F)(F)F)cc3)cc12
Method: competition with immobilised ligand
Concentration: 1 µM
target | effect on | remaining binding
CAMKK1 (Homo sapiens, UniProt Q8N5S9) | binding | 100%
KIT (Homo sapiens, UniProt P10721, A829P) | binding | 98%
ROCK2 (Homo sapiens, UniProt O75116) | binding | 89%
MAP2K3 (Homo sapiens, UniProt P46734) | binding | 100%
STK39 (Homo sapiens, UniProt Q9UEW8) | binding | 100%
MAP3K4 (Homo sapiens, UniProt Q9Y6R4) | binding | 100%
PIP5K1C (Homo sapiens, UniProt O60331) | binding | 98%
Ribosomal protein S6 kinase alpha-2, C-terminal kinase domain (RPS6KA2, Homo sapiens, UniProt Q15349) | binding | 100%
CAMKK2 (Homo sapiens, UniProt Q96RR4) | binding | 100%
EPHB1 (Homo sapiens, UniProt P54762) | cell-free assay | 100%
MAP2K7 (Homo sapiens, UniProt O14733) | binding | 100%
Tyrosine-protein kinase ABL1, phosphorylated (ABL1, Homo sapiens, UniProt P00519, T315I) | binding | 100%
KIT (Homo sapiens, UniProt P10721, T670I/V559D) | binding | 100%
TTK (Homo sapiens, UniProt P33981) | binding | 100%

Study 4
Target: STE20-like serine/threonine-protein kinase (SLK, Homo sapiens, UniProt Q9H2G2)
Sequence of UniProt Q9H2G2 (whole entry, looked up): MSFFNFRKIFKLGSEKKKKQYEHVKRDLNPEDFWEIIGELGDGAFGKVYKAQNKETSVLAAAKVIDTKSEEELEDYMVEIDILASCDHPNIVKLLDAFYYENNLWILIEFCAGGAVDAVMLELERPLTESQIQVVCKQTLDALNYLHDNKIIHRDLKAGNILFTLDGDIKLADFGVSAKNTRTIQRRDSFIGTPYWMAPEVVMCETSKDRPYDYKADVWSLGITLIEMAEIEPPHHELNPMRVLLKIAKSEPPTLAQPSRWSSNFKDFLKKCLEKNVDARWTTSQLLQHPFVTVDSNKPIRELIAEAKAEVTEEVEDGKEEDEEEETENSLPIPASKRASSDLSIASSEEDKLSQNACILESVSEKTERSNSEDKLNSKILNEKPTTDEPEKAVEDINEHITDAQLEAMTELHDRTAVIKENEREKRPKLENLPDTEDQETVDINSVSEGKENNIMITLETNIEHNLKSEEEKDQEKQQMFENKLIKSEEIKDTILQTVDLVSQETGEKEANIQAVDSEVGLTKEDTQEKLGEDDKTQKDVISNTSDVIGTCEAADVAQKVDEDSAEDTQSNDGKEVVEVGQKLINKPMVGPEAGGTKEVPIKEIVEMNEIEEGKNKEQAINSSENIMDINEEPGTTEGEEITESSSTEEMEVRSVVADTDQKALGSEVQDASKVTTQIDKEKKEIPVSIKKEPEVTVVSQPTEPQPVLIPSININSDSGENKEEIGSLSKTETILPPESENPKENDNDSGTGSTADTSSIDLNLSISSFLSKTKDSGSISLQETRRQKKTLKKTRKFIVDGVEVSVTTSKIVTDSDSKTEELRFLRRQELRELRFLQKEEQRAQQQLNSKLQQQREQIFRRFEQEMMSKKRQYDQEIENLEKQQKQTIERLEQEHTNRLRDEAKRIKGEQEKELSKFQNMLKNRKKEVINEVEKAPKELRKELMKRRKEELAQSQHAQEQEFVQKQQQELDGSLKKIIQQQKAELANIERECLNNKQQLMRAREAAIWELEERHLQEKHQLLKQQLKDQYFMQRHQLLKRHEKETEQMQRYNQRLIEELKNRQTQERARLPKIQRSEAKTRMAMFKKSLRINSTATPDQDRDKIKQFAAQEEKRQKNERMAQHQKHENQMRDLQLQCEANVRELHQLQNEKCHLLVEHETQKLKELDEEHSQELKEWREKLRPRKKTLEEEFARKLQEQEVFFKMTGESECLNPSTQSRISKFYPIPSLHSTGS
Effect on: enzyme activity
Mode: inhibitor
Concentration: 0.5 µM
Reference: control
Compound | remaining activity
CCN(CC)CCNC(=O)c1c(C)[nH]c(/C=C2\C(=O)Nc3ccc(Cl)cc32)c1C | 38%
Cc1cc2ncc(-c3ccccc3)nc2cc1C | 91.9%
c1ccc(-c2cnc(Nc3ccc(OCCN4CCCC4)cc3)s2)cc1 | 96.7%
N#Cc1c(NC(=O)c2cccc3ccccc23)sc2c1CCCC2 | 99.2%
CN([C@@H](Cc1ccc(OS(=O)(=O)c2cccc3cnccc23)cc1)C(=O)N1CCN(c2ccccc2)CC1)S(=O)(=O)c1cccc2cnccc12 | 101%
Cc1nc2cc3nc(-c4cccs4)cnc3cc2n1C | 94.5%
Nc1cccc(-c2cc3c(Oc4cccc(O)c4)ncnc3[nH]2)c1 | 64.1%
O=C1C(Cl)=C(N2C(=O)CCC2=O)C(=O)c2ccccc21 | 104%
O=C(Nc1cccc(Nc2nccc(Nc3cccc(C(F)(F)F)c3)n2)c1)C1CC1 | 92.9%
O=C1c2ccccc2-c2n[nH]c3cccc1c23 | 91.6%
COc1cc2ncnc(Nc3ccc(O)c(Br)c3)c2cc1OC | 50.3%
N#C/C(=C\c1ccc(O)c(O)c1)C(=O)NCc1ccccc1 | 99.1%
C[C@@H]1CCN(C(=O)CC#N)C[C@@H]1N(C)c1ncnc2[nH]ccc12 | 89.2%
CCOc1nc(NC(=O)Cc2cc(OC)ccc2OC)cc(N)c1C#N | 103%
Cc1cn(-c2cc(NC(=O)c3ccc(C)c(Nc4nccc(-c5cccnc5)n4)c3)cc(C(F)(F)F)c2)cn1 | 102%
c1ccc(-c2[nH]ncc2-c2ccnc3ccccc23)nc1 | 104%
CN(C)C[C@H]1CCn2c(c(C3=C(c4cn(C)c5ccccc45)C(=O)NC3=O)c3ccccc32)C1 | 83.1%
CCN(CC)C(=O)c1ccc(Nc2nc(OCC3CCCCC3)c3[nH]cnc3n2)cc1 | 71.2%
Ic1cccc(CSc2nnc(-c3ccncc3)o2)c1 | 98.6%
Cn1nc2c3c(cccc31)C(=O)c1ccccc1-2 | 103%
O=c1cc(-c2cccc3c2Sc2ccccc2S3)oc(N2CCOCC2)c1 | 93.5%
COc1cc2ncnc(Nc3cccc(Cl)c3)c2cc1OC | 64.6%
COc1cc2c(cc1OC)-c1[nH]nc(Nc3cccc(F)c3)c1C2 | 95.4%

Further values, each from its own experiment
SMILES | species | route | dose | time | measurement | result
COc1cc(C(=O)OCCCN2CCCN(CCCOC(=O)c3cc(OC)c(OC)c(OC)c3)CC2)cc(OC)c1OC | naive mice, mixed sexes | intrathecal | 100 nmol | 60 min | rotarod fall latency | 82 s and 96 s and 80 s and 77 s and 68 s and 86 s

Excerpt of the above (study 4):
Compound | remaining activity
CCN(CC)C(=O)c1ccc(Nc2nc(OCC3CCCCC3)c3[nH]cnc3n2)cc1 | 71.2%
CCOc1nc(NC(=O)Cc2cc(OC)ccc2OC)cc(N)c1C#N | 103%
COc1cc2ncnc(Nc3ccc(O)c(Br)c3)c2cc1OC | 50.3%
Cc1cc2ncc(-c3ccccc3)nc2cc1C | 91.9%
CN(C)C[C@H]1CCn2c(c(C3=C(c4cn(C)c5ccccc45)C(=O)NC3=O)c3ccccc32)C1 | 83.1%
Cc1cn(-c2cc(NC(=O)c3ccc(C)c(Nc4nccc(-c5cccnc5)n4)c3)cc(C(F)(F)F)c2)cn1 | 102%
O=C1C(Cl)=C(N2C(=O)CCC2=O)C(=O)c2ccccc21 | 104%
O=C1c2ccccc2-c2n[nH]c3cccc1c23 | 91.6%
